Published values gathered from unrelated publications.
Each line is one published result; not all experiments were run side by side. Several values in a cell are separate wells, animals, samples, runs or records. ± marks the error that the study gave.
CAMK4: Calcium/calmodulin-dependent protein kinase type IV (CAMK4, Homo sapiens, UniProt Q16566)
Chain of UniProt Q16566 (whole entry, looked up): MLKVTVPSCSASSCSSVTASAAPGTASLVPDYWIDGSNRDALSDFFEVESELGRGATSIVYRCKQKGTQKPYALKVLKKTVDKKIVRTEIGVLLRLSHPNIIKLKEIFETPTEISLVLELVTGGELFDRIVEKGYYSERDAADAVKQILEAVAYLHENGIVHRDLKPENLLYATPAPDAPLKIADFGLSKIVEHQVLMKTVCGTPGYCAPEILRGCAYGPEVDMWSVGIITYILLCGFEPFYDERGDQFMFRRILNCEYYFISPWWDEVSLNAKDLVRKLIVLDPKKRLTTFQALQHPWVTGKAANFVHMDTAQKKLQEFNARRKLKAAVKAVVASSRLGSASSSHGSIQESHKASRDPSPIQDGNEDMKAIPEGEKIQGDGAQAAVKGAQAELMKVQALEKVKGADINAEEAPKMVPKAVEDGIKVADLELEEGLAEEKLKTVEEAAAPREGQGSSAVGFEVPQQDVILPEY
UCHL1: Ubiquitin carboxyl-terminal hydrolase isozyme L1 (UCHL1, Homo sapiens, UniProt P09936)
Chain of UniProt P42866 (whole entry, looked up): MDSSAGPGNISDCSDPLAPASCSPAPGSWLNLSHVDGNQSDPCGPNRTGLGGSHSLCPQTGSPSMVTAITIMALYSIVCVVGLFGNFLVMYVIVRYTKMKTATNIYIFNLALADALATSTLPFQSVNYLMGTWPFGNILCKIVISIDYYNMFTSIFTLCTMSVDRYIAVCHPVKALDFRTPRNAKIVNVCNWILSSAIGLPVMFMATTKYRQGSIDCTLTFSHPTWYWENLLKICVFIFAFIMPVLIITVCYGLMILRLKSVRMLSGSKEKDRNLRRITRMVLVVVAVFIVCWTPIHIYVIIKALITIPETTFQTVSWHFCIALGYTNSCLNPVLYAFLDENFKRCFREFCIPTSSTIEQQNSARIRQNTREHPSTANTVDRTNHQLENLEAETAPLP
Chain of UniProt P09936 (whole entry, looked up): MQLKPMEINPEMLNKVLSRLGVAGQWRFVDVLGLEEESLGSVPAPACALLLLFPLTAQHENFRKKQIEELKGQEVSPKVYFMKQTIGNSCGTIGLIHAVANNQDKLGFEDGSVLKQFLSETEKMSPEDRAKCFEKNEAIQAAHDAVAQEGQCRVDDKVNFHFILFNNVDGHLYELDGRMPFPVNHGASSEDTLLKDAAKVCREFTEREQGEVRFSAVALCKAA
Chain of UniProt O97775 (whole entry, looked up): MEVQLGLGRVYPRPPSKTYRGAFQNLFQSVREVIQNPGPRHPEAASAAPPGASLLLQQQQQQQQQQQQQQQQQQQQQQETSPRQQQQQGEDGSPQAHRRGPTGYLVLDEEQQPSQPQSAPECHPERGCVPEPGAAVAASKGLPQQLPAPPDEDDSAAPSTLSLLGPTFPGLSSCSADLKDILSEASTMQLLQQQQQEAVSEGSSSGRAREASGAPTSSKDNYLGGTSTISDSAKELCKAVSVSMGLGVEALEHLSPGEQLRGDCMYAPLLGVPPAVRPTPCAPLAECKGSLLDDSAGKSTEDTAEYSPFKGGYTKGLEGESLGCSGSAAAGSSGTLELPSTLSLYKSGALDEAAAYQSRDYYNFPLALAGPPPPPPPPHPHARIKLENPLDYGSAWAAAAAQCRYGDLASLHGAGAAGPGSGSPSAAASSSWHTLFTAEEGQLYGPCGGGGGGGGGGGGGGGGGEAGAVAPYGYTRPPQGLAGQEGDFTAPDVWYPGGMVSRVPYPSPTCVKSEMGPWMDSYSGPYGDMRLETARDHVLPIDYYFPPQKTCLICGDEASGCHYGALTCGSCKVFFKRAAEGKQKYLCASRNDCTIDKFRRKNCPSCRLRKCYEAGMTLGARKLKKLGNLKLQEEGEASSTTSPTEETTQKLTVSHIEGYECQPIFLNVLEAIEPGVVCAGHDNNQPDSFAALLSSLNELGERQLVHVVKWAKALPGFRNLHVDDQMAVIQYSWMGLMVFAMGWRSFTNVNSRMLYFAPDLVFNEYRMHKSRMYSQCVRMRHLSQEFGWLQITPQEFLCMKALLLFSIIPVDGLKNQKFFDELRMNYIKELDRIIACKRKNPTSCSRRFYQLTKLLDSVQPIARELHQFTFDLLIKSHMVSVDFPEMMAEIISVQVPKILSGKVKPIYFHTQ
Chain of UniProt P11607 (whole entry, looked up): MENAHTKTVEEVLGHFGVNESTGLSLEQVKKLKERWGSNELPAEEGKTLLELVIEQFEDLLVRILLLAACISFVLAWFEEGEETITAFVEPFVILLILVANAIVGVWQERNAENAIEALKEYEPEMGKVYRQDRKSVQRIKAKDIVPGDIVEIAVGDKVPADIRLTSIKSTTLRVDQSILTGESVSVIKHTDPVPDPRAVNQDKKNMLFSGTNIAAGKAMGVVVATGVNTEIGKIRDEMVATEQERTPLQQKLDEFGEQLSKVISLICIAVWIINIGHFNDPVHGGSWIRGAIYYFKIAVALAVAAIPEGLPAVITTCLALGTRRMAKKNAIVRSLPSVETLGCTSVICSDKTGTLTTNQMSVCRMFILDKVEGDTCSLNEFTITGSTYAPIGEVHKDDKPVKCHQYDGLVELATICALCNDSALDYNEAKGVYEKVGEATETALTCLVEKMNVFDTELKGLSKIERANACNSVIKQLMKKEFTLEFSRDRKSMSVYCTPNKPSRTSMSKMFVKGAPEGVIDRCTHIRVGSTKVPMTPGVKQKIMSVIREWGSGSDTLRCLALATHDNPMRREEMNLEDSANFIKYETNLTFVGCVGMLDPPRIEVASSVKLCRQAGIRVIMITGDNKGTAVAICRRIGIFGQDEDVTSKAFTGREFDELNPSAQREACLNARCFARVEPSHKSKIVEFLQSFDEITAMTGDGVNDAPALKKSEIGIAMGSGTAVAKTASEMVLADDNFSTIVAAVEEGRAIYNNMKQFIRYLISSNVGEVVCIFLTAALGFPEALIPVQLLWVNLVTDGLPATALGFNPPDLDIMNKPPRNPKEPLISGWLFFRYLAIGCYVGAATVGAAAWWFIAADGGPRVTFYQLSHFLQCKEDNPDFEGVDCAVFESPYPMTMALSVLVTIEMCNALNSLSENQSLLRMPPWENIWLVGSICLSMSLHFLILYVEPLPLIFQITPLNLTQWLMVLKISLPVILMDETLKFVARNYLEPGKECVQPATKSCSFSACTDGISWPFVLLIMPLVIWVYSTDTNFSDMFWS
Chain of UniProt P04756 (whole entry, looked up): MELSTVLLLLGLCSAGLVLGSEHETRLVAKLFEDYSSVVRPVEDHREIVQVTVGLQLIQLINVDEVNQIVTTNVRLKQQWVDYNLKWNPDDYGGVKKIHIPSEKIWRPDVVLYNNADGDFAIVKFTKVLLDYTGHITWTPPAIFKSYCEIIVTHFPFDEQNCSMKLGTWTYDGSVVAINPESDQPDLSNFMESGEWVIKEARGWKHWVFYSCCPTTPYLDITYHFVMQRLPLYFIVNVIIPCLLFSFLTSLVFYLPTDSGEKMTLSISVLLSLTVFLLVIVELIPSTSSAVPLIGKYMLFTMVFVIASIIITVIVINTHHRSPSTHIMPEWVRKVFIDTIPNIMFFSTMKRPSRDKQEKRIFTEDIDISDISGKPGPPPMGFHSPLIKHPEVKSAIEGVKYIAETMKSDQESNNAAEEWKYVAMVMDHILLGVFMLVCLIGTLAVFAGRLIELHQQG
Chain of UniProt P00942 (whole entry, unmodified, looked up): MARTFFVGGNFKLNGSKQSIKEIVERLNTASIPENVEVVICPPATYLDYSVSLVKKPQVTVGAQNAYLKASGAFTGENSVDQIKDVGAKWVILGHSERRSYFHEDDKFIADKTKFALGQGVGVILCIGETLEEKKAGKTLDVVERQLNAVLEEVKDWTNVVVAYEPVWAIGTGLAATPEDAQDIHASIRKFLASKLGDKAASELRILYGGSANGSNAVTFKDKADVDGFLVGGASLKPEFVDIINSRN
Chain of UniProt P09690 (whole entry, looked up): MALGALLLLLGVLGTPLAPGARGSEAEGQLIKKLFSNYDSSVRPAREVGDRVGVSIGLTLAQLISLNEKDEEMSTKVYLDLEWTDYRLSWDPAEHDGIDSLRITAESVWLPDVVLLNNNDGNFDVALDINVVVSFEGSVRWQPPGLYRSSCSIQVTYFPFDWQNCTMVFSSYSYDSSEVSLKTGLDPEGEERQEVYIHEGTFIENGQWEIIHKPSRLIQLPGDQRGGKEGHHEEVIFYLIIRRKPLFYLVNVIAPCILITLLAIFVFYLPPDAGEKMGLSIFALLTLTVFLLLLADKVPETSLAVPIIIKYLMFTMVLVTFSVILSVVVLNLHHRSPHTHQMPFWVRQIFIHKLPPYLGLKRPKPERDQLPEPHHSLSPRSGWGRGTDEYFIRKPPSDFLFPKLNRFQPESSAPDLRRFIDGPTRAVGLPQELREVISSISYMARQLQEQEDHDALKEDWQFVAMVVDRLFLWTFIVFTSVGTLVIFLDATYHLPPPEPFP

`[3H]C1(O)C=C(C(=O)O)CC1` (centres unmarked) gave a Bmax of 43 pmol/mg protein (Calcium/calmodulin-dependent protein kinase type II subunit alpha (Rattus norvegicus, UniProt P11275); radioligand, saturation binding; rat cortical homogenate).
`CCCCCCCCCC(=O)O` has an enthalpy change of -14.9 kcal/mol (Albumin (ALB, Homo sapiens, UniProt P02768); isothermal titration calorimetry; concentration not given, 25 °C, first binding site, HSA 20 µM).
For `Clc1cccc(COc2ccccc2CNCc2cccnc2)c1`, “highest concentration without inhibition” read > 200 µM (Aminoglycoside N(3)-acetyltransferase IV (aacC4, Salmonella sp, UniProt P08988); neomycin acetylation, inhibitor; added: neomycin).
The GTPγS binding of `C[C@@H](NC(=O)[C@@H](N)Cc1ccc(O)cc1)C(=O)NCC(=O)N(C)[C@@H](Cc1ccccc1)C(=O)NCCO` is reported as 33.7% and 39.7% and 35.8% and 29.6% and 40.9% and 39.3% and 37.1% and 29.3% (Oprm1 (Mus musculus, UniProt P42866); agonist; mouse spinal cord membranes; 3.16 µM; baseline: baseline).
With `O=C(c1ccc(Cl)cc1)N1CCN2C(=O)N(OC(=O)N3CCOc4ccccc43)C(=O)C2C1` (centres unmarked) the median ratio was 1.12 (PREP (Homo sapiens, UniProt P48147); enzyme activity, inhibitor, MS-based ABPP; SW-620 in situ; 10 µM, 2 h, 37 °C; baseline: compound over DMSO, lower = stronger inhibition).
`CC[N+]1(CC)CCN(c2ccc(C(N)=O)cc2)CC1` has an ACh response of 0.687 ± 0.235 (Nicotinic acetylcholine receptor alpha1/beta1/epsilon/delta (Mus musculus, UniProt P02716+P04756+P09690+P20782); ion current, inhibitor, two-electrode voltage clamp; Xenopus oocytes; 30 µM, after co-application, unit not given, added: ACh 30 µM; baseline: ACh alone).
`O=C(Nc1cnccc1Cl)N1CCN(Cc2ccc3c(c2)OC(F)(F)O3)CC1` has an inhibition of 6% (kainate receptor, rat; binding; 50 µM, added: [3H]kainic acid).
With `Nc1ncc(-c2nc(N3CCOCC3)nc(N3CCOCC3)n2)c(C(F)F)n1` the remaining activity was 0% (MTOR (Homo sapiens, UniProt P42345); enzyme activity, inhibitor; 10 µM).
For `O=C(O)c1cccc(C(=O)O)n1`, the kon was 5000 ± 1670 M⁻¹ s⁻¹ (VIM-2 (Escherichia coli, UniProt Q5U7L7); enzyme activity, inhibitor; added: nitrocefin).
For `C[C@H]1CN(c2n[nH]c3nc(N[C@H]4CC[C@H](NS(=O)(=O)CCC(F)(F)F)CC4)ncc23)CCO1`, the remaining binding was 0.94 (Nuclear cap-binding protein subunit 1 (Homo sapiens, UniProt Q09161); Kinobeads competition, measured: NCBP1; 0.16 µM, unit not given; baseline: vehicle).
With `COc1cc(Nc2ncc(F)c(Nc3ccc4c(n3)NC(=O)C(C)(C)O4)n2)cc(OC)c1OC` the inhibition was 0% (CAMK4; KINOMEscan; 10 µM).
For `O=C(O)COP(=O)(O)O`, the Ki ratio was 211 (TPI1 (Saccharomyces cerevisiae, UniProt P00942, S211A); enzyme activity, competitive inhibitor, GPDH/NADH-coupled; pH 5.7, 25 °C, ionic strength 0.1 NaCl, added: glyceraldehyde 3-phosphate substrate; baseline: mutant over wild type).
With `Nc1ccc([N+](=O)[O-])cc1` the cytotoxicity Z-score was 0.00985 (Androgen receptor (AR, Pan troglodytes, UniProt O97775); radioligand binding; concentration not given; direction not given).
`O=c1c2ccccc2oc2cc(OCCCCc3ccccc3)ccc12` has a reaction velocity of 0.0016 a.u. (ache (Electrophorus electricus, UniProt O42275); enzyme activity; 0.73 µM, added: substrate 1.73 mM; higher = faster reaction).
`Cn1cc(C(=O)CCl)cc1C(=O)C(Cl)(Cl)Cl` gave a labelling of 14.9% (UCHL1; covalent, intact protein LC-MS; 12.5 µM).
With `[2H]c1c([2H])c([C@]2([2H])CCCN2C(=O)C(C)(C)Oc2ccc3cn[nH]c3c2)c([2H])c([2H])c1C([2H])([2H])[2H]` the remaining binding was 86% (NUAK1 (Homo sapiens, UniProt O60285); KINOMEscan; 1 µM; baseline: DMSO control).
The inhibition of `CN(C(=O)n1cnc(-c2ccc[n+]([O-])c2)c1)C1CCCCC1` is reported as -2% (CAMK4; enzyme activity; 10 µM, added: autocamtide-2).
Under activity, `CC(C)(C)OC(=O)NCCOC(=O)[C@@H]1CS[C@H]2CS[C@H](CS)N21` is recorded as “inactive” (sfhI (Serratia fonticola, UniProt Q9RMI1); activity class; concentration not given).
With `Cc1cccc(CC(=O)CCl)c1` the labelling was 8.29% (UCHL1; covalent, intact protein LC-MS; 12.5 µM).
The inhibition of `COc1ccc(N2C(=O)N(c3c(C)cccc3Cl)Cc3cnc(Nc4ccc(C5CCN(C)CC5)cc4OC)nc32)nc1` is reported as -21% (PIK3CG (Homo sapiens, UniProt P48736); kinase activity; 0.5 µM).
`NCCc1c[nH]c2ccc(O)cc12` gave a product formation of 0 µM (N-alpha-acetyltransferase 80 (NAA80, Homo sapiens, UniProt Q93015); substrate, DTNB; 2 mM, 30 min, 37 °C, added: acetyl-CoA 500 µM).
For `Nc1ncnc2c1ncn2[C@@H]1O[C@H](COP(=O)(O)OP(=O)(O)O)[C@@H](O)[C@H]1O`, the -TΔS was -2.5 kcal/mol (Cell cycle histidine kinase CckA, R374A; cytoplasmic region (Caulobacter vibrioides, UniProt Q9X688, R374A); binding, ITC; 25 °C, added: without c-di-GMP).
`COc1cc(/C=C/c2ccc(O)cc2)cc(OC)c1` has a ∆G of -7.88 kcal/mol (O-methyltransferase (Sorghum bicolor, UniProt A0A1B6PFV1, W279A); isothermal titration calorimetry; added: RSV).
`Cc1nc2cc(CCOCCCCCc3ccccc3)ccc2n1COCC[Si](C)(C)C` gave an Emax of ~18% (ATP2A2 (Sus scrofa, UniProt P11607); ATPase Vmax increase, activator; pig microsomes; 0.1 to 50 µM; baseline: vehicle).
The activation of `CN1CCN(c2cc(-c3ccncc3)c(-c3ccc4ccccc4c3)nn2)CC1` is reported as 0.4% (NPY4R (Homo sapiens, UniProt P50391); agonist, FLIPR; 12.5 µM).
For `COC[C@H]1OC(=O)c2coc3c2[C@@]1(C)C1=C(C3=O)[C@@H]2CCC(=O)[C@@]2(C)C[C@H]1OC(C)=O`, the remaining activity was 93.3 ± 0.99% (TRPM8 (Homo sapiens, UniProt Q7Z2W7); antagonist; HEK293; 5 µM; baseline: control).
For `CN(C(=O)n1cnc(-c2ccc[n+]([O-])c2)c1)C1CCCCC1`, the fold change was -45 (Faah (Rattus norvegicus, UniProt P97612); enzyme activity, ABPP; rat, brain; oral, 10 mg/kg/day, 7 days; baseline: vehicle).
For `CN(CC(=O)O)C(=N)NP(=O)(O)O`, the Km was 190 ± 10 µM (CKMT1A (Homo sapiens, UniProt P12532, E265Q); substrate, Kinase-Glo luminescence; pH 7.0, reverse reaction, E227Q mutant, added: second substrate in excess).
With `O=C(Nc1cccnn1)N1CCC(=Cc2cccc(Oc3ccc(C(F)(F)F)cn3)c2)CC1` the inhibition was 13% (AMPA receptor, rat; binding; 50 µM, added: [3H]AMPA).

Repeated from above:
The inhibition of `COc1ccc(N2C(=O)N(c3c(C)cccc3Cl)Cc3cnc(Nc4ccc(C5CCN(C)CC5)cc4OC)nc32)nc1` is reported as -21% (PIK3CG (Homo sapiens, UniProt P48736); kinase activity; 0.5 µM).
`NCCc1c[nH]c2ccc(O)cc12` gave a product formation of 0 µM (N-alpha-acetyltransferase 80 (NAA80, Homo sapiens, UniProt Q93015); substrate, DTNB; 2 mM, 30 min, 37 °C, added: acetyl-CoA 500 µM).
For `Nc1ncnc2c1ncn2[C@@H]1O[C@H](COP(=O)(O)OP(=O)(O)O)[C@@H](O)[C@H]1O`, the -TΔS was -2.5 kcal/mol (Cell cycle histidine kinase CckA, R374A; cytoplasmic region (Caulobacter vibrioides, UniProt Q9X688, R374A); binding, ITC; 25 °C, added: without c-di-GMP).
`COc1cc(/C=C/c2ccc(O)cc2)cc(OC)c1` has a ∆G of -7.88 kcal/mol (O-methyltransferase (Sorghum bicolor, UniProt A0A1B6PFV1, W279A); isothermal titration calorimetry; added: RSV).
